Earlier results that unrelated publications cite.
Each line is one published result; not all experiments were run side by side. ± marks the error that the study gave.

Under “GABA-induced current change”, `O=S(=O)(O)c1cc[c]([Hg][Cl])cc1` is recorded as “no effect” (Gabrb1/Gabrg2/Gabra1 (Rattus norvegicus, UniProt P15431+P18508+P62813, S325C); 5 nM to 1 µM, added: allopregnanolone).
For `C=CCN(CC=C)CCc1c[nH]c2ccc(F)cc12`, the Ki was over 10 µM (Translocator protein (Tspo, Rattus norvegicus, UniProt P16257)).
`CNC(=O)[C@@]12C[C@@H]1[C@@H](n1cnc3c(NCc4cccc(Cl)c4)nc(C#Cc4ccc5ccc6cccc7ccc4c5c67)nc31)[C@H](O)[C@@H]2O` gave an efficacy of 77.8% (Adenosine receptor A3 (ADORA3, Homo sapiens, UniProt P0DMS8); receptor activation, agonist; 10 µM; baseline: NECA 10 µM maximal effect).
With `COC1=CC(=O)O[C@@H](/C=C/c2ccccc2)C1` the effective concentration was 870 µM (NF-κB; reporter gene and DNA binding, inhibitor; added: TNFα).
`CC(=O)SCC[N+](C)(C)C.[I-]`: “onset of substrate inhibition” about 20 mM (acetylcholinesterase (Schizaphis graminum); substrate; purified enzyme).
Under “binding affinity change”, `CCCCC/C=C\C/C=C\C/C=C\C/C=C\CCCC(=O)NCCO` is recorded as “no effect” (Cannabinoid receptor 2 (CNR2, Homo sapiens, UniProt P34972); concentration not given, F197V mutant; baseline: wild type).
Under “fold loss of potency”, `LGGAKQAGDV` is recorded as 2.5 fold (integrin αIIbβ3, human; PAC-1 binding inhibition; peptide; baseline: PAC-1 over fibrinogen binding inhibition).
With `C[C@@H](SC(=O)CNC(=O)Cc1ccccc1)C(=O)O` the Km was 38.4 µM (D-alanyl-D-alanine carboxypeptidase (Actinomadura sp. R39, UniProt P39045); substrate; pH 7.50, 25 °C).
With `N[C@@H](CCC(=O)O)C(=O)O` the Km was 3000 ± 1200 µM (glutamine synthetase human; substrate, radiometric).
With `C=CCN(CC=C)CCc1c[nH]c2ccccc12` the Ki was 0.1 µM (5-hydroxytryptamine receptor 1A (HTR1A, Homo sapiens, UniProt P08908); binding; cloned human receptor; added: [3H]8-OH-DPAT).
`O=[P@]1(S)OC[C@H]2O[C@@H](n3cnc4cc(Cl)c(Cl)cc43)[C@H](O)[C@@H]2O1`: “Km or Ki” 89.6 µM (PDE1A; cyclic nucleotide hydrolysis, substrate or inhibitor, isothermal titration calorimetry).
The kcat of `Oc1c(Cl)c(Cl)c(Cl)c(Cl)c1Cl` is reported as 17 ± 5 s⁻¹ (pentachlorophenol 4-monooxygenase Sphingobium chlorophenolicum; substrate, item: tetrachlorohydroquinone; 2 min).
`Nc1ncnc2c1ncn2[C@@H]1O[C@H](COP(=O)(O)OP(=O)(O)OP(=O)(O)O)[C@@H](O)[C@H]1O` has a kcat of about 0.3 s⁻¹ (HCV NS3 helicase; NTP hydrolysis; no RNA or metal ions).
`COc1ccccc1N1CCN(CCN(C(=O)C2CCC(CF)CC2)c2ccccn2)CC1` (stereo not shown): “hippocampus to cerebellum PET ratio” 3 (5-hydroxytryptamine receptor 1A (Htr1a, Mus musculus, UniProt Q64264); mouse; 90 min).
`O=c1c2nc(Br)n([C@@H]3O[C@@H]4CO[P@@](O)(=S)O[C@H]4[C@H]3O)c2nc2[nH]c(-c3ccccc3)cn12`: “Km or Ki” 2.5 µM (PDE1B; cyclic nucleotide hydrolysis, substrate or inhibitor, isothermal titration calorimetry).
For `CC(C)(C)OC(=O)c1cc2c(cn1)[nH]c1ccccc12`, the efficacy was 108 ± 6% (human GABAA α3β3γ2 receptor; modulator, two-electrode voltage clamp; Xenopus oocytes; saturating, added: GABA EC50; baseline: GABA response).
`N[C@@H](CO)C(=O)O` gave a Km of 1600 µM (serine hydroxymethyltransferase (Leishmania donovani); substrate).
The kcat/Km/Kd of `O=[PH](O)O` is reported as 12000 M⁻² s⁻¹ (orotidine 5'-phosphate decarboxylase wild type; EO decarboxylation, activator; 25 °C).
With `Cc1cc(Nc2ncc(Cl)c(Nc3ccccc3S(=O)(=O)C(C)C)n2)c(OC(C)C)cc1C1CCNCC1` the selectivity ratio was 50 (IGF-1 receptor; baseline: IGF-1R IC50 over ALK IC50).
Under “Km or Ki”, `Nc1ncnc2c1nc(Br)n2C1OC2COP(O)(=S)OC2C1O` (stereo not shown) is recorded as 106 µM (PDE6; cyclic nucleotide hydrolysis, substrate or inhibitor, isothermal titration calorimetry).
For `Cc1cccc(C(=O)C(F)(F)F)c1`, “binding free energy” read -11.8 kcal/mol (Acetylcholinesterase (ACHE, Homo sapiens, UniProt P22303)).
`CN(C)C/C=C/C(=O)Nc1cccc(C(=O)Nc2ccc(Nc3nccc(-c4cccnc4)n3)cc2)c1` has an IC50 of 1 to 10 µM (IRAK1 kinase (via Pellino E3 ligase activity); Pellino E3 ligase activity, inhibitor; cells).
For `COC1C2OP(O)(=S)OCC2OC1n1c(Sc2ccc(Cl)cc2)nc2c(N)ncnc21` (stereo not shown), “Km or Ki” read 17.2 µM (PDE1C; cyclic nucleotide hydrolysis, substrate or inhibitor, isothermal titration calorimetry).
The Km of `tetrahydrofolate` is reported as 2900 µM (serine hydroxymethyltransferase, Plasmodium chabaudi; substrate).
With `O=[N+]([O-])[O-].[Ag+]` the inhibition was 85% (Na+/K+-ATPase, gill; enzyme activity; rainbow trout, freshwater; 10 µg/L, 48 h).

Excerpt of the above:
`O=[P@]1(S)OC[C@H]2O[C@@H](n3cnc4cc(Cl)c(Cl)cc43)[C@H](O)[C@@H]2O1`: “Km or Ki” 89.6 µM (PDE1A; cyclic nucleotide hydrolysis, substrate or inhibitor, isothermal titration calorimetry).
The kcat of `Oc1c(Cl)c(Cl)c(Cl)c(Cl)c1Cl` is reported as 17 ± 5 s⁻¹ (pentachlorophenol 4-monooxygenase Sphingobium chlorophenolicum; substrate, item: tetrachlorohydroquinone; 2 min).
`Nc1ncnc2c1ncn2[C@@H]1O[C@H](COP(=O)(O)OP(=O)(O)OP(=O)(O)O)[C@@H](O)[C@H]1O` has a kcat of about 0.3 s⁻¹ (HCV NS3 helicase; NTP hydrolysis; no RNA or metal ions).
`COc1ccccc1N1CCN(CCN(C(=O)C2CCC(CF)CC2)c2ccccn2)CC1` (stereo not shown): “hippocampus to cerebellum PET ratio” 3 (5-hydroxytryptamine receptor 1A (Htr1a, Mus musculus, UniProt Q64264); mouse; 90 min).
